Measurements gathered from unrelated publications.
Each line is one published result; not all experiments were run side by side. Values joined by “and” are separate records of one study, mostly repeats; a detail may differ. Numbers after ± are the reported error.
CYP2C8 K399R/R139K: Cytochrome P450 2C8 (CYP2C8, Homo sapiens, UniProt P10632, K399R/R139K)
GRB2: Growth factor receptor-bound protein 2 (GRB2, Homo sapiens, UniProt P62993)
HCRTR1: Orexin/Hypocretin receptor type 1 (HCRTR1, Homo sapiens, UniProt O43613)
Chain of UniProt O43613 (whole entry, looked up): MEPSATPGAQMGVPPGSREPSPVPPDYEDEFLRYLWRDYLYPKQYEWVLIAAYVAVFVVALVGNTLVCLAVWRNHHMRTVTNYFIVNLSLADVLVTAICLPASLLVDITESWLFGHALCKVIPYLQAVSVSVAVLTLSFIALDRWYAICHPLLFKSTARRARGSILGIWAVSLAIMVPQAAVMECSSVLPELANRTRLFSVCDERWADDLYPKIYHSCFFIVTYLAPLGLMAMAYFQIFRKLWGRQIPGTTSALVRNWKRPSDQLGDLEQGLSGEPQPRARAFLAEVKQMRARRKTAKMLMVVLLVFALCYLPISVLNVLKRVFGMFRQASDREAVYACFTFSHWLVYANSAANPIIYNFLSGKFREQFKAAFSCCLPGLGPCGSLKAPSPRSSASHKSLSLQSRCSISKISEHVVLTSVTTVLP
Chain of UniProt Q07954 (whole entry, looked up): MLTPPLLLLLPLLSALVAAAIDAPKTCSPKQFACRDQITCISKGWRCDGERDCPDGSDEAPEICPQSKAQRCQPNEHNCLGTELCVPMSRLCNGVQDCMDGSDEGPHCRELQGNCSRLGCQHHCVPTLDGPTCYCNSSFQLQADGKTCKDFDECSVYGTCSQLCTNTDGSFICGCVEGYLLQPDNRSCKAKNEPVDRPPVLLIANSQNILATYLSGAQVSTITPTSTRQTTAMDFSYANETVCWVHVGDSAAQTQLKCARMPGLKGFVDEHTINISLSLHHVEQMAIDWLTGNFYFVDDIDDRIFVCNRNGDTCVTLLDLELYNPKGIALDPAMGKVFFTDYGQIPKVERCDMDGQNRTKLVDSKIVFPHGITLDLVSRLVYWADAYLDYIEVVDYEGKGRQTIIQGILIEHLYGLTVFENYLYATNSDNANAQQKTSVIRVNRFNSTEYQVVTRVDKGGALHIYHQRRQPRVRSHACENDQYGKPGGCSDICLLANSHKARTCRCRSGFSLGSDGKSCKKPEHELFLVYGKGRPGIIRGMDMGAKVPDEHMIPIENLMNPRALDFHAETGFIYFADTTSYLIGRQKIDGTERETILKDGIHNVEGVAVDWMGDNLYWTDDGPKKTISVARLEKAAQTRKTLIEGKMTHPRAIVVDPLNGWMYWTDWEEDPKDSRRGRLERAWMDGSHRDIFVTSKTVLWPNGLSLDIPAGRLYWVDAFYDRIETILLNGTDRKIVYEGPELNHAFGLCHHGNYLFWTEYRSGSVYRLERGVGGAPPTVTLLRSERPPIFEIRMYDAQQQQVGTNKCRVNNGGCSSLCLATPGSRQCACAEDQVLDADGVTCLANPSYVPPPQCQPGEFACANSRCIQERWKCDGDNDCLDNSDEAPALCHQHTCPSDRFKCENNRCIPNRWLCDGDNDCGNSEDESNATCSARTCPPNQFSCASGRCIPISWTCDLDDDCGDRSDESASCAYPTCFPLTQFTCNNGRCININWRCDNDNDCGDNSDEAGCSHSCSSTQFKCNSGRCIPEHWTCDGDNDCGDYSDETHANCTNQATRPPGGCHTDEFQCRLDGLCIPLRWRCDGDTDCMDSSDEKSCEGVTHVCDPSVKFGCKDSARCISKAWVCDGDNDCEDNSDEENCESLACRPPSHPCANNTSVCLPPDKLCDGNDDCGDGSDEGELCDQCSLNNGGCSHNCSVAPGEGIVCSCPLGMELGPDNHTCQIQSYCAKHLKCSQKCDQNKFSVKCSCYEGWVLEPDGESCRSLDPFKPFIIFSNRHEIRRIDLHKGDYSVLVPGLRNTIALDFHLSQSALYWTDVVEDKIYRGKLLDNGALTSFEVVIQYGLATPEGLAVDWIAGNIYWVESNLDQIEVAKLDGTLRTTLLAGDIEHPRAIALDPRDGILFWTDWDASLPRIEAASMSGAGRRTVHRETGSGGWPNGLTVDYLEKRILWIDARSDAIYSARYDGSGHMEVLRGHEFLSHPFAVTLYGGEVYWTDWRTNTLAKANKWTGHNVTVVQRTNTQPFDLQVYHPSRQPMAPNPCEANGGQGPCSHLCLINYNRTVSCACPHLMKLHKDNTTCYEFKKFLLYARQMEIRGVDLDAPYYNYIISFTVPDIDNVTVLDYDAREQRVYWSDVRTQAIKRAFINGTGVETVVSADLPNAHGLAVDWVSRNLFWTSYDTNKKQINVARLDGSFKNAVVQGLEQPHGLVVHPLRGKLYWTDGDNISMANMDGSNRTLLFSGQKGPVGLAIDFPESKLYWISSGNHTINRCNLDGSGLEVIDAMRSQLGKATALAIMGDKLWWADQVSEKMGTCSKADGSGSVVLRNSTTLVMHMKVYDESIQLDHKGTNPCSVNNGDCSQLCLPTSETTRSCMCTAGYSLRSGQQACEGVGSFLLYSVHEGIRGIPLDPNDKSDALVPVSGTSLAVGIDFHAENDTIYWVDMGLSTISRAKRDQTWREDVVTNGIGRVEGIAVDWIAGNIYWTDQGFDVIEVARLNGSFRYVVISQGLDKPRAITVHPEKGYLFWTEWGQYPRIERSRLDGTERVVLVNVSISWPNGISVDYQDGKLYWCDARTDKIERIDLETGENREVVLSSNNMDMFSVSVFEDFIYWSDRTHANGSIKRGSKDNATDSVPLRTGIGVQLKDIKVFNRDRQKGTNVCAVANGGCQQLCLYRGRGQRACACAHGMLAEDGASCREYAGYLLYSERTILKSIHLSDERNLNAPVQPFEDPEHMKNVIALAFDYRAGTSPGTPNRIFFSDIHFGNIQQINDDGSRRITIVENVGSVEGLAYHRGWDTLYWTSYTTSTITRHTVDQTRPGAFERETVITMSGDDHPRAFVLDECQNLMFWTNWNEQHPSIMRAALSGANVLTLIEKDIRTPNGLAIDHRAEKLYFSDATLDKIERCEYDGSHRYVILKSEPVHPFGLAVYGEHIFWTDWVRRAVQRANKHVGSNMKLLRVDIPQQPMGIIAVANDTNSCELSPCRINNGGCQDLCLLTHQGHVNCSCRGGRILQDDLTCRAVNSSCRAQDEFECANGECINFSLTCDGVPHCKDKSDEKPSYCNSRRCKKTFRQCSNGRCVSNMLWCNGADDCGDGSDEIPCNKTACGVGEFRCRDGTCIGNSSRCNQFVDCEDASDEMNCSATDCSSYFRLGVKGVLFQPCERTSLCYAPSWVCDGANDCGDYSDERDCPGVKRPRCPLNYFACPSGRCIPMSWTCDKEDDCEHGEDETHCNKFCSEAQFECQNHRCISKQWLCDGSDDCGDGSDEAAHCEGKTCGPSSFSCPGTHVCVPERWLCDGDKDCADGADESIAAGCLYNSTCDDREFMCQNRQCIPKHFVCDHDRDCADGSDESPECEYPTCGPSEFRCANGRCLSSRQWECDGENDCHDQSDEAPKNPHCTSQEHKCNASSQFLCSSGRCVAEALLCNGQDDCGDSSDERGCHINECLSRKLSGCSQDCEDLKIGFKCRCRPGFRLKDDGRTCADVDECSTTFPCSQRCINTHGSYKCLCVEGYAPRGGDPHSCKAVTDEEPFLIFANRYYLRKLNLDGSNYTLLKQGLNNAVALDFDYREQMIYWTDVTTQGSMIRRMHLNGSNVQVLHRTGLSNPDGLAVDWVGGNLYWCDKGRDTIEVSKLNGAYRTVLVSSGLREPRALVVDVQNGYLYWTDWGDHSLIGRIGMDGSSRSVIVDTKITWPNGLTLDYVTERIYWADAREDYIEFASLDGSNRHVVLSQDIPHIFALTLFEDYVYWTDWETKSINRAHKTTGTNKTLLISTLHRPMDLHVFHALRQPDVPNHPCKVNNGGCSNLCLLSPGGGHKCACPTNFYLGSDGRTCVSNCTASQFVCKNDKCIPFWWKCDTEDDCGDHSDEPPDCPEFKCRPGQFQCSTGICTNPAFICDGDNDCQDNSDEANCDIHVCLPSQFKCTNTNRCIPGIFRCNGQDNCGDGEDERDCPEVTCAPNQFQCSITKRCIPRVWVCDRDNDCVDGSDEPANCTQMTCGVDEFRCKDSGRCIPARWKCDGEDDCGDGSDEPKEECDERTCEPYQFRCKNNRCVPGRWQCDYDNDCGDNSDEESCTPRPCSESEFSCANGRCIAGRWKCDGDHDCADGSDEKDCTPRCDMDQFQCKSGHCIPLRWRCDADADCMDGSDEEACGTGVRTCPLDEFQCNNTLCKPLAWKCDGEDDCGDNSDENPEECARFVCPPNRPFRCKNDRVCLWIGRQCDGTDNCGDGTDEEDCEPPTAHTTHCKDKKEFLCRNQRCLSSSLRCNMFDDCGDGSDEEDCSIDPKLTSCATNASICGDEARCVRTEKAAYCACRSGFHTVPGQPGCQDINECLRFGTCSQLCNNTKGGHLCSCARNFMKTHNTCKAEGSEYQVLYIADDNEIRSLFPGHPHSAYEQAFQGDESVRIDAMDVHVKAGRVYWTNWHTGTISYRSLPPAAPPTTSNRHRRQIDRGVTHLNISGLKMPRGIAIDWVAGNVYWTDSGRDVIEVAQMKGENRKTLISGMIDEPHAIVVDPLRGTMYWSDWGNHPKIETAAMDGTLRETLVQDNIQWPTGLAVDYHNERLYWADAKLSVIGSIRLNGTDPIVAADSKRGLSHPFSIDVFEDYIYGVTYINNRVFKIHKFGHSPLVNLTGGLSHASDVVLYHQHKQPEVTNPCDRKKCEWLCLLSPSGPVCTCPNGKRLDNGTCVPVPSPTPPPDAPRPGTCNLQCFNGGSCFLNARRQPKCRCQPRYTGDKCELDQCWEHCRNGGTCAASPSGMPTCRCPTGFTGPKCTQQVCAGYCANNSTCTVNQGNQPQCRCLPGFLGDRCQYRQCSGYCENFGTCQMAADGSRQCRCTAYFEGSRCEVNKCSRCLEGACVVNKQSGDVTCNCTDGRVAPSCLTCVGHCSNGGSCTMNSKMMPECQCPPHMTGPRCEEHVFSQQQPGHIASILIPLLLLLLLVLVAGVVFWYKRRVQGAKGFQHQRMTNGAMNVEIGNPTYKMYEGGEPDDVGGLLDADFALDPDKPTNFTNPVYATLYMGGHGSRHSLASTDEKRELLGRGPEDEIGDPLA
Chain of UniProt P62937 (whole entry, unmodified, looked up): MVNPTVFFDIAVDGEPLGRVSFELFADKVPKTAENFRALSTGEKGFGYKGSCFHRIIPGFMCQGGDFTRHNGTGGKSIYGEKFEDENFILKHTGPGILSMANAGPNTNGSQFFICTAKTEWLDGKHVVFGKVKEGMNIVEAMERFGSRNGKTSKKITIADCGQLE

| Substance | target | test | system | conditions | Kd |
| --- | --- | --- | --- | --- | --- |
| CN(CCOc1ccc(CC2SC(=O)NC2=O)cc1)c1ccccn1 (stereo not drawn) | CYP2C8 K399R/R139K | ligand binding, equilibrium spectral binding | purified protein | pH 7.4, 25 °C, high-affinity site, 1% CHAPS | < 0.001 µM |
| Oc1ccc(Sc2ccc(O)cc2)cc1 | Regulator of G-protein signaling 17 (Homo sapiens, UniProt Q9UGC6) | binding, NMR |  |  | 500 µM |
| CC[C@H](C)[C@H](NC(=O)[C@@H]1CCCN1)C(=O)N1CCC[C@H]1C(=O)N[C@H](C(=O)N[C@@H](CC(=O)O)C(=O)N[C@@H](CCCNC(=N)N)C(=O)N[C@@H](CC(N)=O)C(=O)N[C@@H](CC(C)C)C(=O)N[C@@H](CCCCN)C(=O)N1CCC[C@H]1C(=O)N[C@@H](CC(=O)O)C(=O)N[C@@H](CCCNC(=N)N)C(=O)O)C(C)C | GRB2 | binding, ITC |  | pH 8 | 564 µM |
| Aspartic acid methyl ester | LRP1, CR8 domain (Homo sapiens, UniProt Q07954) | tryptophan fluorescence titration |  | pH 5.5, CR8 domain, low ionic strength | 78000 ± 3000 µM |
| NC[C@H]1O[C@H](O[C@H]2[C@H](O)[C@@H](O[C@H]3O[C@H](CO)[C@@H](O)[C@H](N)[C@H]3O)[C@H](N)C[C@@H]2N)[C@H](N)C[C@@H]1O | HIV-1 SL4 RNA stem-loop | binding, ESI-FTMS titration |  | pH 7.5 | 7.8 ± 1.1 µM |
| COC(=O)[C@H](CCCCN)NC(C)=O | LRP1, CR5 domain (Homo sapiens, UniProt Q07954) | binding, tryptophan fluorescence titration | isolated CR5 domain | pH 7.4, 298 K, ionic strength 0.02 | 1600 ± 150 µM |
| NC[C@@H]1O[C@H](O[C@H]2[C@@H](O)[C@H](O[C@@H]3[C@@H](O)[C@H](N)C[C@H](N)[C@H]3O[C@H]3O[C@H](CO)[C@@H](O)[C@H](O)[C@H]3N)O[C@@H]2CO)[C@H](N)[C@@H](O)[C@@H]1O | HIV-1 nucleocapsid-SL2 RNA complex | binding, ESI-FTMS |  | pH 7.5 | 9.3 ± 1.9 µM |
| CC(=O)O[C@H]1C(=O)[C@@]2(C)[C@H]([C@H](OC(=O)c3ccccc3)[C@]3(O)C[C@H](OC(=O)[C@H](O)[C@@H](NC(=O)c4ccccc4)c4ccccc4)C(C)=C1C3(C)C)[C@]1(OC(C)=O)CO[C@@H]1C[C@@H]2O | CYP2C8 K399R/R139K | binding, equilibrium spectral titration | purified enzyme | pH 7.4, 25 °C, second site, two-site model, with: 2 µM enzyme | 11.7 ± 7.6 µM |
| CC(=O)N[C@H]1C(O)O[C@H](CO)[C@@H](O[C@@H]2O[C@H](CO)[C@H](O)[C@H](O)[C@H]2O)[C@@H]1O (stereo partly drawn) | Galectin-1 (LGALS1, Homo sapiens, UniProt P09382) | binding, ITC |  | pH 7.2 | 89.6 µM |
| O=C(O)CC(O)(CC(=O)O)C(=O)O | SLC4A1 (Homo sapiens, UniProt P02730) | chloride exchange flux | human red blood cells | 0 °C, external pH 8.0, outward-facing state | 49500 µM |
| C[C@H](N)C(=O)N[C@H](CCC(=O)O)C(N)=O | NLRP1 (Homo sapiens, UniProt Q9C000) | binding, SPR |  |  | 0.668 µM |
| c1ccc2nc3ccccc3cc2c1 | HIV-1 SL3 RNA stem-loop | binding, ESI-FTMS titration |  | pH 7.5 | 2.4 ± 0.3 µM |
| CCCCCCCCCCCC(=O)O | Chalcone isomerase-like protein 1 (CHIL1, Humulus lupulus, UniProt A0A2U7XUH7) | binding, differential scanning fluorimetry |  |  | 11.8 µM |
| CCOc1cc2c(cc1OC)CCN(CC(=O)NCc1ccccc1)C2Cc1ccc(OC)c(OC)c1 (stereo not drawn) | HCRTR1 |  |  |  | 0.03 ± 0.009 µM |
| COC(=O)[C@@H](N)CCCN=C(N)N | LRP1, CR3 domain (Homo sapiens, UniProt Q07954) | tryptophan fluorescence titration |  | pH 7.4, 298 K, CR3 domain, ionic strength 0.17 | 780 ± 40 µM |
| C[C@H](NS(=O)(=O)c1cccc2c(N(C)C)cccc12)C(=O)N[C@@H](C)C(=O)N1CCC[C@H]1C(=O)N[C@@H](Cc1ccccc1)C(=O)O | PPIA (Homo sapiens, UniProt P62937, G74A/G75A) | binding, FRET titration |  | 4 °C, with: dansylated peptide | 107 ± 30 µM |
| COc1ccc(CC2c3cc(OC)c(OC)cc3CCN2CC(=O)Nc2cccc(-c3ccccc3)c2)cc1OC (stereo not drawn) | HCRTR1 |  |  |  | 8.98 ± 2.2 µM |
| phosphatidylinositol 3,4,5-trisphosphate | Src kinase-associated phosphoprotein 2, PH domain (Skap2, Mus musculus, UniProt Q3UND0) | fluorescence polarization direct titration |  | pH 6.5, 21 °C, compound labelled with BODIPY TMR-X | 8 µM |
| CSCC[C@H](NC(=O)[C@H](CC(C)C)NC(=O)[C@H](CCCCN)NC(=O)[C@H](CCCCN)NC(=O)[C@H](Cc1c[nH]cn1)NC(=O)[C@H](CCCNC(=N)N)NC(=O)[C@H](CO)NC(=O)[C@@H](NC(=O)[C@H](CO)NC(=O)[C@H](CCC(N)=O)NC(=O)CNC(=O)[C@H](CCCCN)NC(=O)[C@H](CCCCN)NC(=O)[C@H](CO)NC(=O)[C@H](CCCCN)NC(=O)[C@H](CC(C)C)NC(=O)[C@H](Cc1c[nH]cn1)NC(=O)[C@H](CO)NC(=O)[C@H](Cc1ccc(O)cc1)NC(C)=O)[C@@H](C)O)C(=O)N[C@@H](Cc1ccccc1)C(=O)N[C@@H](CCCCN)C(=O)N[C@H](C(=O)N[C@@H](CCC(=O)O)C(N)=O)[C@@H](C)O | Protein S100-B (Homo sapiens, UniProt P04271) | binding, NMR line shape analysis |  | 35 °C, high salt | 30 ± 6 µM |
| COC(=O)c1cc(Cc2ccc(NC(=O)c3ccccc3)c(C(=O)OC)c2)ccc1NC(=O)c1ccccc1 | PPIA (Homo sapiens, UniProt P62937) | binding, SPR |  | pH 7.4 | 32.3 µM |
| c1ccc2c3c(ccc2c1)-c1cccc2cccc-3c12 | Cytochrome P450 1B1 (CYP1B1, Homo sapiens, UniProt Q16678) | binding, fluorescence |  | pH 7.4 | < 2.5 µM and 1.8 µM |
| CCOc1cc2c(cc1OC)CCN(CC(=O)NCc1cccnc1)C2Cc1ccc(OC)c(OC)c1 (stereo not drawn) | HCRTR1 |  |  |  | 0.0157 ± 0.0017 µM |
| CC1NC(NCCC[C@H](N)C(=O)O)=NC1=O (stereo partly drawn) | AGER (Homo sapiens, UniProt Q15109) | binding, fluorescence |  | pH 6.5 | 0.04 µM |
| COc1ccc(CC2c3cc(OC)c(OC)cc3CCN2CC(=O)NCc2ccccn2)cc1OC (stereo not drawn) | HCRTR1 |  |  |  | 0.261 ± 0.12 µM |
| CC(C)C[C@H](NC(=O)[C@H](CC(N)=O)NC(=O)[C@H](CCCNC(=N)N)NC(=O)[C@H](CC(=O)O)NC(=O)[C@@H](NC(=O)[C@@H]1CCCN1C(=O)[C@@H]1CCCN1C(=O)[C@@H]1CCCN1)C(C)C)C(=O)N[C@@H](CCCCN)C(=O)N1CCC[C@H]1C(=O)N[C@@H](CC(=O)O)C(=O)N[C@@H](CCCNC(=N)N)C(=O)O | GRB2 | binding, ITC |  | pH 8 | 42 µM |
| phosphatidylinositol 4,5-bisphosphate | Ezrin, FERM domain (EZR, Homo sapiens, UniProt P15311) | isothermal titration calorimetry |  | pH 7.5, 25 °C | 3.31 ± 0.888 µM |
| COc1ccc(CC2c3cc(OCC(F)(F)F)c(OC)cc3CCN2CC(=O)NCc2cccnc2)cc1OC (stereo not drawn) | HCRTR1 |  |  |  | 0.0085 ± 0.001 µM |
| CCNC(=O)[C@H]1O[C@@H](n2cnc3c(NCCCCNC(=O)CCCCCNC(=O)COc4ccc(/C=C/c5ccc6n5[B-](F)(F)[N+]5=C(c7cccs7)C=CC5=C6)cc4)ncnc32)[C@H](O)[C@@H]1O | ADORA1 (Homo sapiens, UniProt P30542) | binding, NanoBRET saturation | HEK293 expressing Nluc-A1 | 1 h, 37 °C | 0.167 ± 0.0744 µM |
| COc1ccc(CC2c3cc(OCC(F)(F)F)c(OC)cc3CCN2CC(=O)NCc2ccccn2)cc1OC (stereo not drawn) | HCRTR1 |  |  |  | 0.0225 ± 0.0027 µM |
| CSCC[C@H](NC(=O)[C@H](CC(C)C)NC(=O)[C@H](CC(C)C)NC(=O)[C@H](CC(C)C)NC(=O)[C@H](C)N)C(=O)N[C@@H](Cc1ccc(O)cc1)C(=O)N[C@@H](CCCNC(=N)N)C(=O)N[C@@H](CCCNC(=N)N)C(=O)O | dnaK (Escherichia coli, UniProt P0A6Y8) | peptide binding, surface plasmon resonance |  | with: ADP | 2.44 µM |
